Published values of several laboratories.
± gives the spread as reported.

CCCCCCCCCCCCNC(=O)N[C@H](C(=O)N[C@H]1/C=C/CCNC(=O)/C=C/[C@H](C)NC1=O)C(C)C
EC50 (Granta; cell viability, CellTiter-Glo; 24 h): 99.3 ± 4.8 nM

COc1ccc2c(c1)c(CC(=O)NCCCCNC(=O)CCC(=O)OC1c3cc4c(cc3C(c3cc(OC)c(OC)c(OC)c3)C3C(=O)OCC13)OCO4)c(C)n2C(=O)c1ccc(Cl)cc1 (stereo not shown)
minimum cell number (1483 HNSCC cells; WST-1; 48 h; relative to: vehicle): ~35%

O=C(C=Cc1ccc(-c2ccccc2)cc1)Nc1ccc(Oc2ccccc2)c(S(=O)(=O)O)c1
IC50 (HEK293 AP-1-luc; AP-1 reporter gene, inhibitor; 24 h, added: 20% serum): 630 nM

CN1CCN(c2ccc(-c3cccc(CN4CCN(CCNC(=O)CCCCCCCNc5cccc6c5C(=O)N(C5CCC(=O)NC5=O)C6=O)CC4)c3)cc2NC(=O)c2c[nH]c(=O)cc2C(F)(F)F)CC1 (stereo not shown)
chromatin-bound protein level (MV4;11 and RS4;11 cells; degrader, chromatin fraction immunoblot, measured: MLL, RBBP5, Menin; 0.5 µM, 4 days; relative to: OICR-9429 or pomalidomide): decreased

Cc1ccc(C(C)C)cc1Oc1nccc(-c2c(-c3ccc(C(F)(F)F)cc3)ncn2[C@H]2CC[C@@H](N)C2)n1
mRNA level (TSEC; qPCR, measured: CXCL1; 1.25 µM, added: LPS): decreased

CC(C)C(C(=O)N(Cc1ccc(C2CCCCC2)cc1)c1ccc(C(=O)O)cc1)N(C)S(=O)(=O)c1c(F)c(F)c(F)c(F)c1F (stereo not shown)
ED50 (Panc1005; cell viability, MTS; 72 h): 2400 ± 200 nM

O=C(Cc1cccs1)NCB(O)O
MIC of cefotaxime (Escherichia coli DH10B expressing blaADC; agar dilution; 4 µg/mL, MIC of cefotaxime, added: cefotaxime): 2 µg/mL

CN(Cc1cn(-c2ccc(OCCCF)cc2)nn1)S(=O)(=O)c1ccc(CN2CCOCC2)cc1
inhibition (MDA-MB-231; Matrigel invasion, antagonist; 100 nM, 22 h, added: CXCL12 200 ng/mL): 85%

O=C(NNC(=S)Nc1cccc(C(F)(F)F)c1)c1cccn1-c1ccc(F)cc1
luciferase activity (HeLa, transfected luciferase; protein folding, measured: wild type firefly luciferase; above 5 µM): decreased

[O-][S+](CCCCOc1ccc(C(=C2C3CCCC2CCC3)c2ccc(O)cc2)cc1)CCCC(F)(F)C(F)(F)F (stereo not shown)
IC50 (MCF7 inducible ERα D538G; cell proliferation, inhibitor, MTT; 5 days): 18 nM

COc1ccc(C(O)(c2ccccc2)c2ccccc2)cc1
EC50 (HeLa; mitotic arrest; 4 h): 49000 nM

Cc1ncsc1-c1ccc([C@H](C)NC(=O)[C@@H]2C[C@@H](O)CN2C(=O)[C@@H](NC(=O)COCCOCCOCCOCCNC(=O)c2ccc(CN3CCN(S(=O)(=O)c4ccc(NC(=S)NCc5cccnc5)cc4)CC3)cc2)C(C)(C)C)cc1
MDSC expansion (mouse bone marrow cells; concentration not given, added: co-culture with MC-38 cells): inhibited

O=S(=O)(NCc1[nH]nnc1CNC1CCCCC1)c1ccc(Cl)c(Cl)c1
imipenem MIC fold reduction (Escherichia coli BL21 expressing VIM-2; 10 µM, added: imipenem; relative to: imipenem alone): 3 fold

[O-][S+](CCCCOc1ccc(C(=C2C3CC4CC(C3)CC2C4)c2ccc(O)cc2)cc1)CCCC(F)(F)C(F)(F)F (stereo not shown)
IC50 (MCF7 inducible ERα D538G; cell proliferation, inhibitor, MTT; 5 days): 20 nM

C[C@]12CCC3=C(C(=O)c4occ5c4[C@]3(C)[C@H]3O[C@H]3C5=O)[C@@H]1CCC2=O
sub-G1 cells (MDA-MB-231; PI flow cytometry; concentration not given, 3 h): 31.5%

N#Cc1ccc2cc3c(=O)[nH]c(=O)nc-3n(-c3cccc(-c4nnn[nH]4)c3)c2c1
GI50 (DU-145; cell growth, ATPlite; 72 h): 85700 nM

O=C(Nc1ccccc1OS(=O)(=O)c1ccc(OC(F)(F)F)cc1)c1cnccn1
propidium iodide positive cells (MCF7 transfected with P2X7R; cell death, antagonist, flow cytometry; 5 µM, 18 h, added: Bz-ATP; relative to: control): 35%

CC(C)(c1ccc(OC[C@H](O)CO)cc1)c1ccc(OC[C@H](O)CCl)c(I)c1 (single isomer, unassigned)
IC50 (LNCaP-95; cell proliferation, BrdU incorporation; 2 d): 6890 ± 2850 nM

O=C(Cc1cccs1)NC(B(O)O)c1cccc(C(=O)O)c1 (stereo not shown)
MIC of cefotaxime (Escherichia coli DH10B expressing blaADC; agar dilution; 4 µg/mL, MIC of cefotaxime, added: cefotaxime): 1 µg/mL

A few entries again:
[O-][S+](CCCCOc1ccc(C(=C2C3CC4CC(C3)CC2C4)c2ccc(O)cc2)cc1)CCCC(F)(F)C(F)(F)F (stereo not shown)
IC50 (MCF7 inducible ERα D538G; cell proliferation, inhibitor, MTT; 5 days): 20 nM

CCCCCCCCCCCCNC(=O)N[C@H](C(=O)N[C@H]1/C=C/CCNC(=O)/C=C/[C@H](C)NC1=O)C(C)C
EC50 (Granta; cell viability, CellTiter-Glo; 24 h): 99.3 ± 4.8 nM
